Experimental data gathered from unrelated publications.
Each numbered part is a random draw from the data of one study; scales do not carry over between parts.
UniProt Q96SB4, sequence (whole entry, looked up): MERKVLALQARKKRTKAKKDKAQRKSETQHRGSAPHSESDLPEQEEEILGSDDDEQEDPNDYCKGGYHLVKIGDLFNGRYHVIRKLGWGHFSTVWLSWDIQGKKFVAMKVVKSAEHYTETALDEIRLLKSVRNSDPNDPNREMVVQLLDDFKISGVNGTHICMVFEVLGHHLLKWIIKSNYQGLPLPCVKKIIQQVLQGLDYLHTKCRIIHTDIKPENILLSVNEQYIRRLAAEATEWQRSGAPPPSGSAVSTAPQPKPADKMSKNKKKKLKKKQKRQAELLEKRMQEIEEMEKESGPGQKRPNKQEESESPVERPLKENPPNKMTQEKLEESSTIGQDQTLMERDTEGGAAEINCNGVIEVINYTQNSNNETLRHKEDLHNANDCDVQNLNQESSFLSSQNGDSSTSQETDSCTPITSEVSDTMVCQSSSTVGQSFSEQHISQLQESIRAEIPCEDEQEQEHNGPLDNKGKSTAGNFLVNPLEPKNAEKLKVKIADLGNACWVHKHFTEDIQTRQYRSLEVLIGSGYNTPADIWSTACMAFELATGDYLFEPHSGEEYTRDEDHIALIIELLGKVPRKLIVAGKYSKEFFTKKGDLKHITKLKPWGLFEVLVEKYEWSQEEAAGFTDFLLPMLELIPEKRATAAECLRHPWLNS
UniProt Q9FX25, sequence (whole entry, looked up): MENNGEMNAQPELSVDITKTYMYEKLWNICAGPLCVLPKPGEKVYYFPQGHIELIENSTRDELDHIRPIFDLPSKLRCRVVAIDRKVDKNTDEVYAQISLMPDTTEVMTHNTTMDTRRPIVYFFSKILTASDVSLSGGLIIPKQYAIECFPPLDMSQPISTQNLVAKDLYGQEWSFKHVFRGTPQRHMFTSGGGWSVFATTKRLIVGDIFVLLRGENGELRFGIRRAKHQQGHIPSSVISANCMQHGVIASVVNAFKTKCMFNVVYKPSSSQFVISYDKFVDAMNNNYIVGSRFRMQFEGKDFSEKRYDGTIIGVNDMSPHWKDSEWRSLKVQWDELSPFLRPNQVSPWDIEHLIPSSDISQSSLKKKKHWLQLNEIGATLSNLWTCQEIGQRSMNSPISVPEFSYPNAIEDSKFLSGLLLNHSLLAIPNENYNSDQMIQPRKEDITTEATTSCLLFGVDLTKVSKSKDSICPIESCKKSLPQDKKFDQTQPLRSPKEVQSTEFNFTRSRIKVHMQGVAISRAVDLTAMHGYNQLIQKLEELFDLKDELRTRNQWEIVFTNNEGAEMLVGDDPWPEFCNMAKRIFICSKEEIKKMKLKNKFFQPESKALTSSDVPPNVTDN
UniProt Q9C5W9, sequence (whole entry, looked up): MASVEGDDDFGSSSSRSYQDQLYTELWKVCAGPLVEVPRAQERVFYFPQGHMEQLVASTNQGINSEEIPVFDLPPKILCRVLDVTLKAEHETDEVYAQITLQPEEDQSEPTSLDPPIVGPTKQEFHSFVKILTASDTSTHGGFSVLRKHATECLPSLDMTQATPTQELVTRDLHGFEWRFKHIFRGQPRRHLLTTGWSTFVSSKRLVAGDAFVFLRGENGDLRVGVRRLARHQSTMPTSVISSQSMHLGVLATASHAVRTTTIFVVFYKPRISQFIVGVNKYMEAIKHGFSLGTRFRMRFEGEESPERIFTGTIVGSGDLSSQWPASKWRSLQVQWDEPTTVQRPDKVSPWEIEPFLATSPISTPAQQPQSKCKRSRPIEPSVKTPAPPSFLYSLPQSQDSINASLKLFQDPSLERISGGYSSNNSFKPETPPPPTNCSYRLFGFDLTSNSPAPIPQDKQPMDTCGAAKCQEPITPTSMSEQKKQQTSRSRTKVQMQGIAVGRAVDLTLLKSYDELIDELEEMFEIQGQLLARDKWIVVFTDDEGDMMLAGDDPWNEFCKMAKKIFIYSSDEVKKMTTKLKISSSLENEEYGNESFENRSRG
UniProt O24410, sequence (whole entry, looked up): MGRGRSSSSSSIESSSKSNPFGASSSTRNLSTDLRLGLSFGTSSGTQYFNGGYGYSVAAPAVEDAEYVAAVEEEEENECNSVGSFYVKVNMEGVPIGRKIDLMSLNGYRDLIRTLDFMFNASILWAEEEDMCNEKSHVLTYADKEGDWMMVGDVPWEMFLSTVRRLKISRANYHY
UniProt O24408, sequence (whole entry, looked up): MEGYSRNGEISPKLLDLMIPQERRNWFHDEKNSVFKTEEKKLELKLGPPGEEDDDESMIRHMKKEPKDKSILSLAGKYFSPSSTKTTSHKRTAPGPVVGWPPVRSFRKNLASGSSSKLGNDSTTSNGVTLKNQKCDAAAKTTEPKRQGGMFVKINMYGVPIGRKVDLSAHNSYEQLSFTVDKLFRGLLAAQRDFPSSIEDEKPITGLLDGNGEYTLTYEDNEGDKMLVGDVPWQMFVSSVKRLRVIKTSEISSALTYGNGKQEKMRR
UniProt Q13233, sequence (whole entry, looked up): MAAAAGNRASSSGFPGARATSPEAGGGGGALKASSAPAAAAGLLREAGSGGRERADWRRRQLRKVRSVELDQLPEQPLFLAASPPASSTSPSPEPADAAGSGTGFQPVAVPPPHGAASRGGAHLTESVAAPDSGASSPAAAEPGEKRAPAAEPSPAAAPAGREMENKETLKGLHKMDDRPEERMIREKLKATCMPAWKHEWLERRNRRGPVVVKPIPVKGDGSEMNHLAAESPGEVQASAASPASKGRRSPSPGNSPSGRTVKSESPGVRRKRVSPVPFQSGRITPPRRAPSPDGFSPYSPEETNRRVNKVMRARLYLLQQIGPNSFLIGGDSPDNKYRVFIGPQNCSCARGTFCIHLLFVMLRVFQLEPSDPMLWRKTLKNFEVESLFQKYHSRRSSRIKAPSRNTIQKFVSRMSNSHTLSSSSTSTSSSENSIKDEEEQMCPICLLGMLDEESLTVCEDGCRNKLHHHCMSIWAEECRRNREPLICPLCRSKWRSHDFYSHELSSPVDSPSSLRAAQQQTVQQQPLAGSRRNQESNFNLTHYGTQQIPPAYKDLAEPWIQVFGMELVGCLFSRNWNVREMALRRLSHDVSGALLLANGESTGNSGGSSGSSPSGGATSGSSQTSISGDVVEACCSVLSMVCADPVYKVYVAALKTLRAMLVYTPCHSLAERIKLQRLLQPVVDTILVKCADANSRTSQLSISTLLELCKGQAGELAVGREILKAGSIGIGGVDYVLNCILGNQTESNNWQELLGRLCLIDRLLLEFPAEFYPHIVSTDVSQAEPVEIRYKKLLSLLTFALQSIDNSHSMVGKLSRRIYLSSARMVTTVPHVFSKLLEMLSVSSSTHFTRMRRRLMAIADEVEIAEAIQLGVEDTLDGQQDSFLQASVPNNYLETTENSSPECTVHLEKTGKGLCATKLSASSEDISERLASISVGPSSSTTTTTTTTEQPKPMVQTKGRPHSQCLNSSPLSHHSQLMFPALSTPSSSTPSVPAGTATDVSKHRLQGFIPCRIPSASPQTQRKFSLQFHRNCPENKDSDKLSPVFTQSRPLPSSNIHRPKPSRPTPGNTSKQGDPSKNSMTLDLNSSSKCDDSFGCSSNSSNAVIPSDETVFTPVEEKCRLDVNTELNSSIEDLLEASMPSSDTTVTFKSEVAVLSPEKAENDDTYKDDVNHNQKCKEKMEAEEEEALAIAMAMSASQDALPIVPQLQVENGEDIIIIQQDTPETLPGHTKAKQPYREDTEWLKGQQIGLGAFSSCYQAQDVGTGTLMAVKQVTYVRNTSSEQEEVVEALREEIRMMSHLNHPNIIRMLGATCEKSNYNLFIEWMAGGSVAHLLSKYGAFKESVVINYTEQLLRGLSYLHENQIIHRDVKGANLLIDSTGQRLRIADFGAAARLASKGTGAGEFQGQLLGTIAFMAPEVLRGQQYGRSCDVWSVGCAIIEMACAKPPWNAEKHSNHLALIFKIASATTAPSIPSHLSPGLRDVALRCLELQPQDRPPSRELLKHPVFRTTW
UniProt Q8L7G0, sequence (whole entry, looked up): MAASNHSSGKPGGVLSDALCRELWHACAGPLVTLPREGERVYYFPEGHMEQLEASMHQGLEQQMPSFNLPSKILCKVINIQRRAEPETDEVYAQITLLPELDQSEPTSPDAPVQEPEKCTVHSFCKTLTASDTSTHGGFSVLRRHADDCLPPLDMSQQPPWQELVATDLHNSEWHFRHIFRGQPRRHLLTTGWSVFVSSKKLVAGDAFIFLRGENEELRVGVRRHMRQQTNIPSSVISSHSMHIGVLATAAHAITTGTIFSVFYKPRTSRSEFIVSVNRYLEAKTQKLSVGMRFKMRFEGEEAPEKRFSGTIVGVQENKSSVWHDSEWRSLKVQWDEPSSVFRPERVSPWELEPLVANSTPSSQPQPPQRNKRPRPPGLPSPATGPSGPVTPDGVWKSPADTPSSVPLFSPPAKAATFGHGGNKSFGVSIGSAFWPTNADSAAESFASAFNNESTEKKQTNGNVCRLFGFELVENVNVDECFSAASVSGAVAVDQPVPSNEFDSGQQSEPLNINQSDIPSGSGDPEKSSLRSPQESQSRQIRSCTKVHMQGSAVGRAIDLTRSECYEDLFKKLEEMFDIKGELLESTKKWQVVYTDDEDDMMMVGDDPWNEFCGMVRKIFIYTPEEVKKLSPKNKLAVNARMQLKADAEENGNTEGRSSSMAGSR

Study 1 — Sequence: B1 (IAA1); technique: two-hybrid; relative to: out of 4 tests; direction: higher = firmer interaction
B1: IAA1 (Arabidopsis thaliana, UniProt P49677); chain MEVTNGLNLKDTELRLGLPGAQEEQQLELSCVRSNNKRKNNDSTEESAPPPAKTQIVGWPPVRSNRKNNNNKNVSYVKVSMDGAPYLRKIDLKMYKNYPELLKALENMFKFTVGEYSEREGYKGSGFVPTYEDKDGDWMLVGDVPWDMFSSSCQKLRIMKGSEAPTAL
| partner | conditions | positive tests |
| --- | --- | --- |
| ARF1 538-665 (Arabidopsis thaliana, UniProt Q8L7G0) |  | 0 |
| IAA17 (Arabidopsis thaliana, UniProt P93830) |  | 4 |
| ARF13 (Arabidopsis thaliana, UniProt Q9FX25) |  | 0 |
| ARF18 482-602 (Arabidopsis thaliana, UniProt Q9C5W9) |  | 0 |
| IAA18 (Arabidopsis thaliana, UniProt O24408) |  | 2 |
| IAA20 (Arabidopsis thaliana, UniProt O24410) | weak activation fusion | 1 |

Study 2 — effect on: cell-free assay; technique: competition with immobilised ligand; tested at: 1 µM
Structure (SMILES): Cc1nc(Cc2cccc(C(F)(F)F)c2)sc1-c1ccc(C(N)=O)nc1
| target | remaining binding |
| --- | --- |
| SRPK1 (Homo sapiens, UniProt Q96SB4) | 75% |
| FLT3 (Homo sapiens, UniProt P36888, D835V/ITD) | 100% |
| MAP3K1 (Homo sapiens, UniProt Q13233) | 100% |

Study 3 — technique: RNA Bind-n-Seq; molecule type: RNA; matrix: in vitro; tested at: 15 pmol; setting: 4-mer, random 30-nt RNA, single round; together with: 3 µM DMDA-PatA, 2 mM AMP-PNP; relative to: input library; direction: higher = stronger binding
Target: Eukaryotic initiation factor 4A-I (EIF4A1, Homo sapiens, UniProt P60842, residues 1-406, full length assumed)
UniProt P60842, sequence (whole entry, looked up): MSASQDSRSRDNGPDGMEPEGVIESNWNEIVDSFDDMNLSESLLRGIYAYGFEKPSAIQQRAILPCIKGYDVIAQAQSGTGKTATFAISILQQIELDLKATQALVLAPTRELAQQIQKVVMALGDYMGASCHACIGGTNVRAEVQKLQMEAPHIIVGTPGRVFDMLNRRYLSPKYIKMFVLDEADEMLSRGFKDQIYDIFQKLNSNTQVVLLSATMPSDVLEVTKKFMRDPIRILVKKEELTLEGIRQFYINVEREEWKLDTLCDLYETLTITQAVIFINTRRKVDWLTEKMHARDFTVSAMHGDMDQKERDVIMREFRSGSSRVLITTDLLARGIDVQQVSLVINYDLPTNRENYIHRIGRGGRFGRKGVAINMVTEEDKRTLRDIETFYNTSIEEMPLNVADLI
| Oligonucleotide | 4-mer enrichment [fold] |
| --- | --- |
| UGAC | 0.61 |
| UCUU | 0.954 |
| AAAG | 0.984 |
| CGCC | 0.42 |
| UUGU | 1.65 |
| GCAU | 0.887 |
| ACUG | 0.721 |
| CAUA | 0.649 |

Other studies, line by line
| Compound | system | endpoint | value |
| --- | --- | --- | --- |
| CCC[C@H]1NC(=O)CSC[C@@H](C(=O)OCC)N(C)C(=O)[C@H](CC(C)C)NC(=O)[C@H](C)N(C)C(=O)[C@@H](CC(C)C)NC(=O)[C@H](C)N(C)C(=O)[C@@H]2CCCN2C(=O)[C@H](CC(C)C)NC(=O)CN(CCC)C1=O | hydrocarbon/water | logD | 0.832 |

Some of these lines once more (study 1):
| partner | conditions | positive tests |
| --- | --- | --- |
| IAA17 (Arabidopsis thaliana, UniProt P93830) |  | 4 |
| ARF13 (Arabidopsis thaliana, UniProt Q9FX25) |  | 0 |
